Results of several laboratories.
Parts stem from different laboratories: compare values within a part only. Positions count from the first letter of the parent shown.

Study 1 — technique: aptamer microarray, sandwich; form: DNA with 2'F-ANA; medium: in vitro; concentration: 200 nM; with: Cy3 exosite-II aptamer, 400 nM; direction: higher = stronger binding; oligonucleotide: GGTTGGTGTGGTTGG
Target: Prothrombin, mature alpha-thrombin (F2, Homo sapiens, UniProt P00734)
Setting: whole 15-mer aptamer, many near background
Modification	mean fluorescence intensity
2'F-ANA at 1 3 5 6 8 9 10 11 13	49.9 a.u.
2'F-ANA at 2 3 4 5 6 7 9 11 12 13 14 15	51.2 a.u.
2'F-ANA at 3 4 5 6 7 8 12 15	254 a.u.
2'F-ANA at 4 6 9 11 13 14 15	129 a.u.
2'F-ANA at 1 4 8 9 10 14	45.1 a.u.
2'F-ANA at 7 9 12 13 14 15	217 a.u.
2'F-ANA at 1 2 5 9 11 13 14 15	47.2 a.u.
2'F-ANA at 2 7 9 13 14 15	128 a.u.
2'F-ANA at 2 4 5 7 10 11 14 15	53 a.u.
2'F-ANA at 1 2 3 4 5 7 8 9 13 14	78.5 a.u.
2'F-ANA at 1 2 9	194 a.u.
2'F-ANA at 2 3 6 7 8 10 12 14 15	262 a.u.
2'F-ANA at 1 2 3 6 9 12 13 14	79 a.u.
2'F-ANA at 1 3 5 6 9 10 13 14 15	47.3 a.u.
2'F-ANA at 1 2 4 5 9 10 11 12 13 15	48.4 a.u.
2'F-ANA at 2 7 9 11 13 14 15	147 a.u.
2'F-ANA at 2 7 10 11 12	172 a.u.
2'F-ANA at 2 3 5 7 8 9 11 12 13	152 a.u.
2'F-ANA at 1 4 6 9 13 14 15	46.8 a.u.
2'F-ANA at 4 5 6 7 10 11 12 13 14	81.6 a.u.
2'F-ANA at 1 3 5 8 9 10 13 15	89.5 a.u.
2'F-ANA at 7 8 11 13 14	238 a.u.
2'F-ANA at 8 9 10 12	212 a.u.
2'F-ANA at 4 5 6 7 9 13 15	49.4 a.u.

Study 2 — technique: protein-binding microarray; form: double-stranded DNA, one strand shown; medium: in vitro; concentration: 250 nM; setting: 60-bp whole probe; with: salmon DNA 0.4 mg/ml; baseline: random background probes; direction: higher = stronger binding; constant ends, left off below: GCCTAGCAC … GTCTTGATTCGCTTGACGCTGCTG
Target: Interferon regulatory factor 5, full length, phosphomimetic (IRF5, Homo sapiens, UniProt Q13568-2, residues 1-514, K96S/S451D/S453D/S456D/S462D)
Oligonucleotide	log fluorescence
TCATTTTACATTATTACACTGTGCTAG	1.12 z-score
GACGGTTTCGGGTATGGGGACGTGCTA	7.49 z-score
GTAAGTTTCACTTTCCAAAGGTGCTAG	7.93 z-score
TAAGGTTTCCTACTGCTTTAGTGCTAG	0.446 z-score
GACGATTTTGGGTATCGAGACGTGCTA	1.09 z-score
GACGGTATCCTACTGCCGACGTGCTAG	0.142 z-score
TTAGATCTCAGTATAGATTAGTGCTAG	0.352 z-score
TTATATTTCGGGTATCGATTAGTGCTA	7.62 z-score
GACGGACTGGGTCTTGGGACGTGCTAG	-0.808 z-score
TTACGTTTCCTTATCCTTTAGTGCTAG	1.8 z-score
TCACTAGTGTTTTTCTCACTGTGCTAG	0.573 z-score
TCAATTATATATATCATACTGTGCTAG	0.887 z-score
TTAGGTTTCCTTTACCTTTAGTGCTAG	0.947 z-score
TTAGGACTGGCGTTTCGGTTAGTGCTA	5.6 z-score
GACGGTTTCGTTATCCTGACGTGCTAG	6.27 z-score
GACGGACTGGGTATCGGGAAGTGCTAG	0.531 z-score
TTAGCACTGGACACTGGGTTAGTGCTA	-0.452 z-score
TTAGGACTGCTTCTCCTATAGTGCTAG	-0.135 z-score
TTAGGTCTCGATCTCGGTTAGTGCTAG	0.61 z-score
GACGATTTCGACACTGGGGACGTGCTA	1.69 z-score
GACGATTGCAGTATCGAGACGTGCTAG	1.57 z-score
GACGATATCGGGACTGGAGCCGTGCTA	0.916 z-score
TCATACCTGAATATCTTACTGTGCTAG	0.445 z-score

Study 3 — technique: DHFR PCA, deep sequencing; medium: yeast; with: (+)-ABA 200 µM; baseline: wild-type fitted maximum; direction: higher = stronger binding
Target: ABI1, truncated, D143A, DHFR fusion (Arabidopsis thaliana)
Setting: methotrexate growth selection, single substitutions
Parent: PYL1, truncated, DHFR fusion (Arabidopsis thaliana); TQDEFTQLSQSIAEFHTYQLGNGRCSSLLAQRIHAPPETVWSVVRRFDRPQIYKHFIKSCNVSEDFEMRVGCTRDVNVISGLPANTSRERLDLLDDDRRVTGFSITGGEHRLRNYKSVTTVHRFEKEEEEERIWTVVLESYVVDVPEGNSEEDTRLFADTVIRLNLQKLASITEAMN; partner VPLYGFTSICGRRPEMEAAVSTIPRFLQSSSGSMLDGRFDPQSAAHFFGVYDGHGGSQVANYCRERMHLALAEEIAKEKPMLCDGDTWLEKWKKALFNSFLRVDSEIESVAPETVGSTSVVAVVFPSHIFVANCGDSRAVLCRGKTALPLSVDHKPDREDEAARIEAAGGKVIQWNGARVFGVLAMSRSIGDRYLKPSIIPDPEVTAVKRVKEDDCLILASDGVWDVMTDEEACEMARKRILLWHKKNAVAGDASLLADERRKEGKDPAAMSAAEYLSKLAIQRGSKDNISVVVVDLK
Variant	relative binding score
T173A	98.8%
E152W	89.4%
L164M	105%
A84W	66.3%
L29C	85.4%
E127R	105%
T6Y	92.7%
T120N	-0.131%
P37M	86.5%
T86M	94%
G71H	69.4%
N149A	78.3%
T119D	9.58%
D95S	75%
R111S	65.5%
N77H	107%
A30R	102%

Study 4 — technique: universal PBM; form: double-stranded DNA, one strand shown; medium: in vitro; concentration: not given; direction: higher = stronger binding
Target: Sal-like protein 4, full length isoform B (SALL4, Homo sapiens, UniProt Q9UJQ4-2, residues 1-616)
Setting: 8-mer, flanks averaged, mean of replicates
Construct (chain): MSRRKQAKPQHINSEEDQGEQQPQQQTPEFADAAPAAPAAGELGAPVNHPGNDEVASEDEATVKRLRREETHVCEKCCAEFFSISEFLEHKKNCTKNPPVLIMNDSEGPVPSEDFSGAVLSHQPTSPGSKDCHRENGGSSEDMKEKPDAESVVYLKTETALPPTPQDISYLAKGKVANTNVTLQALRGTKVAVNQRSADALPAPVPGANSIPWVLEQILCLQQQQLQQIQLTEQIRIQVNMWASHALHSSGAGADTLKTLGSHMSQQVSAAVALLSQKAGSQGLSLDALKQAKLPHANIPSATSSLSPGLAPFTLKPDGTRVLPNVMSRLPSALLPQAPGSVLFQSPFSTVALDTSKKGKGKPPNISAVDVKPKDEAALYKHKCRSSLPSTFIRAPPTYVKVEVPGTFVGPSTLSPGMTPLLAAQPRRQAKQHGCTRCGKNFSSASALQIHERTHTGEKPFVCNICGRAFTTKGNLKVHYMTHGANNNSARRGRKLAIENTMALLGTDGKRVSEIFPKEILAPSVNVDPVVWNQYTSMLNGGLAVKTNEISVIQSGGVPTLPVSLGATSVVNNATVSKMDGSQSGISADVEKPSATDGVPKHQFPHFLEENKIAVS
Oligonucleotide	E-score
GGTCTCAA	-0.103
ACGTAAAC	0.0223
ATCTCTCA	0.0467
CGGTAGTC	-0.265
CGGGAATA	0.0793
AACAGGCC	-0.252
CTACTAAG	-0.0537
AAACCGAA	0.0999
CGAACCCG	-0.301
CACTTGAC	-0.0377
GACGCTCC	-0.234
ACAATAAA	0.34
TAGGCCTA	0.114
GCGAATTA	0.23
CGCCATCC	-0.149
CCCTCCAG	-0.305
CCATGAGG	-0.167
GCAGAGGA	-0.124
CGCCCGAA	-0.163
AGTACCGG	-0.255
CAGAGGAG	-0.136
GAGAGGAC	-0.105
GGTAAACC	-0.126
GTTTGCAA	0.123
AAGTACAC	0.187

Study 5 — target: NFE2L3, bZIP domain (human); technique: DHFR protein complementation; medium: yeast; baseline: wild-type JUN-FOS pair; direction: higher = stronger binding
Setting: single substitutions, most at no-binding floor
Parent: JUN, bZIP domain (human); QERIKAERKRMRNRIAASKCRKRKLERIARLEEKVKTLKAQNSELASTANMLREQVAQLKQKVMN; partner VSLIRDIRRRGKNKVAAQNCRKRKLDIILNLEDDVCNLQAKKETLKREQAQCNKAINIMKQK
Variant	binding fitness [natural log]
E54S	-1.52
V35S	-1.57
L38I	-1.42
A49P	-1.51
T48P	-1.55
A49M	-1.54
T37G	-1.49
L31T	-1.54
S47R	-1.34
L59P	-1.3
S43Q	-1.5
A40F	-1.3
R30P	-1.53
V56T	-1.44
E44S	-1.42

Study 6 — technique: RNA Bind-n-Seq; form: RNA; medium: in vitro; concentration: 20 nM; setting: 6-mer, flanks averaged, single round; with: 150 mM KCl; baseline: input library; direction: higher = stronger binding
Target: TAR DNA-binding protein 43, full length, His tag (TARDBP, Homo sapiens, UniProt Q13148, residues 1-414)
Oligonucleotide	6-mer enrichment (R)
ACACGA	0.68
CCCCCG	0.693
UGACGU	0.789
UAAGCC	0.637
AACCGC	0.648
CUUGAG	0.86
AGUCGA	0.787
CAGAUG	0.854
UUACGG	0.884
CAUUGG	0.879

Other studies, line by line
Molecule	tested on	test	system	setting	scale	measurement	value
GSPLAKAFTSTGL	Saccharomyces cerevisiae	binding, competitive growth deep sequencing	peptide, cyclin E1-Cln2 fusion strain	concentration not given, peptide library 1	direction not given	growth enrichment score	0.0156
PhoQ, residues 284 288 289 292 302 303 SSTMSV	PhoP, residues 12 14 15 18 19 NYFTV (Escherichia coli, UniProt P23836)	Sort-seq, item: YFP reporter	E. coli	PhoQ-PhoP variant library, with: 10 µM Mg2+	baseline: high Mg2+ state, higher = stronger signaling	fold induction	1.44
PKNAKRNLSSEFAN	Saccharomyces cerevisiae	binding, competitive growth deep sequencing	peptide, cyclin E1-Cln2 fusion strain	concentration not given, tiling library, Cln2 subtracted	direction not given	growth enrichment score	1.57
QDYERRLLRQIVIQNE	Saccharomyces cerevisiae	binding, competitive growth deep sequencing	peptide, cyclin E1-Cln2 fusion strain	concentration not given, tiling library, Cln2 subtracted	direction not given	growth enrichment score	-0.272
